Experimental data of several laboratories.
Each line is one published result; not all experiments were run side by side.
Organism: Pseudomonas aeruginosa

| SMILES | effect on | method | strain | time | temperature | direction | MIC |
| --- | --- | --- | --- | --- | --- | --- | --- |
| CCn1cc(C(=O)NCCNCCO)c(=O)c2cc(OC)c(OCc3cccc(F)c3)cc21 |  |  | ATCC 27853 |  |  | ≥80% growth inhibition | < 0.25 µg/mL |
| COc1ccc2ccc3c(c2c1)C=[N+]1C2CCCCC2[N+]2=Cc4ccccc4[O][Au-]21[O]3.F[P-](F)(F)(F)(F)F (stereo not drawn) | bacterial growth | broth microdilution | carbapenem-resistant clinical isolate | 24 h |  |  | 20 µM |
| C=CCOC(=O)c1ccc(NC(=O)c2ccc(NC(=O)c3ccc(NC(=O)C(CC(N)=O)NC(=O)c4ccc(NC(=O)c5ccc([N+](=O)[O-])cc5)cc4)cc3)c(OC(C)C)c2OCC=C)cc1 (stereo not drawn) |  |  | PA14 ΔmexAB |  |  |  | > 64 µg/mL |
| NCC1OC(OC2C(N)CC(N)C(OC3OC(CO)C(O)C(N)C3O)C2OCCCCCCCCCCCCn2cc(CNc3nc(NCc4cn(CCCCCCCCCCCCOC5C(OC6OC(CN)C(O)CC6N)C(N)CC(N)C5OC5OC(CO)C(O)C(N)C5O)nn4)nc(NCc4cn(CCCCCCCCCCCCOC5C(OC6OC(CN)C(O)CC6N)C(N)CC(N)C5OC5OC(CO)C(O)C(N)C5O)nn4)n3)nn2)C(N)CC1O (stereo not drawn) | microbial growth | broth dilution | PAO1 |  |  |  | 32 µg/mL |
| COc1ccc2ccc3c(c2c1)C=[N+]1C2CCCCC2[N+]2=Cc4ccc(-c5ccccc5)cc4[O][Au-]21[O]3.F[P-](F)(F)(F)(F)F (stereo not drawn) | bacterial growth | broth microdilution | carbapenem-resistant | 24 h |  |  | > 20 µM |
| CC[C@@H](C)[C@@H](NC(=O)[C@@H](C)NC(=O)[C@@H](CCCCN)NC(=O)[C@@H](CC(C)C)NC(=O)[C@@H](CC(C)C)NC(=O)[C@H](NC(=O)[C@@H](CCCCN)NC(=O)[C@@H](CC(C)C)NC(=O)[C@@H](C)NC(=O)[C@@H](CCCCN)NC(=O)[C@@H](CCCCN)NC(=O)[C@@H](CCCCN)NC(=O)[C@@H](C)NC(=O)[C@@H](CCCCN)NC(=O)[C@@H](CO)NC(=O)[C@@H](Cc1ccccc1)NC(=O)[C@H](NC(=O)[C@@H](CCCCN)NC(=O)[C@@H](CC(C)C)NC(=O)[C@@H](Cc1ccccc1)NC(=O)[C@@H](CO)NC(=O)[C@@H](CCCCN)NC(=O)[C@@H](Cc1c[nH]c2ccccc12)NC(=O)[C@@H](CCCCN)NC(C)=O)[C@H](C)O)[C@H](C)O)C(=O)N[C@H](CO)C(=O)N[C@H](CCCCN)C(N)=O |  | broth microdilution | PAO1 | 24 h | 37 °C |  | 1.3 µM |
| CSCC[C@H](NC(=O)[C@H](CCCNC(=N)N)NC(=O)[C@H](Cc1c[nH]c2ccccc12)NC(=O)[C@H](CCC(N)=O)NC(=O)[C@H](Cc1c[nH]c2ccccc12)NC(=O)[C@H](CCCNC(=N)N)NC(=O)[C@@H](N)CCCNC(=N)N)C(=O)N[C@@H](CCCCN)C(=O)N[C@@H](CCCCN)C(=O)N[C@@H](CC(C)C)C(=O)NCC(=O)NCCCC[C@H](NC(=O)CNC(=O)[C@H](CC(C)C)NC(=O)[C@H](CCCCN)NC(=O)[C@H](CCCCN)NC(=O)[C@H](CCSC)NC(=O)[C@H](CCCNC(=N)N)NC(=O)[C@H](Cc1c[nH]c2ccccc12)NC(=O)[C@H](CCC(N)=O)NC(=O)[C@H](Cc1c[nH]c2ccccc12)NC(=O)[C@H](CCCNC(=N)N)NC(=O)[C@@H](N)CCCNC(=N)N)C(=O)NCCCCCC(N)=O |  | broth microdilution | ATCC 27853 | 24 h | 37 °C |  | 15 µM |
| CC(CCCOC(=O)CCC[N+](C)(C)C)C1CCC2C3CCC4CC(OC(=O)CCC[N+](C)(C)C)CCC4(C)C3CC(OC(=O)CCC[N+](C)(C)C)C12C (stereo not drawn) | microbial growth | broth dilution | ATCC27853 | 16 h |  |  | 250 µg/mL |
| CC(C)C[C@H](NC(=O)[C@H](CC(N)=O)NC(=O)[C@H](CCCNC(=N)N)NC(=O)[C@@H](CC(C)C)NC(=O)[C@H](Cc1ccc(C(F)(F)F)cc1)NC(=O)[C@H](CC(=O)O)NC(=O)[C@H](CCCCN)NC(=O)[C@@H](CC(C)C)NC(=O)[C@H](CCCNC(=N)N)NC(=O)[C@H](CCC(N)=O)NC(=O)[C@@H](NC(=O)[C@@H](CC(C)C)NC(=O)[C@H](CCCNC(=N)N)NC(=O)[C@H](CCCCN)NC(=O)[C@H](Cc1ccc2ccccc2c1)NC(=O)CN)C(C)C)C(=O)N[C@H](C(N)=O)C(C)C |  | broth microdilution | PAO1 |  |  |  | 6.2 to 12.5 µM |
